Experimental data collected from several papers.
Every numbered part comes from another study and shows a few of its results, in no order. Changes are numbered by the printed parent chain.

Study 1 — technique: DHFR PCA, deep sequencing; medium: yeast; with: (+)-ABA 710 µM; reference: wild-type fitted maximum; direction: higher = stronger binding; endpoint: relative binding score
Target: ABI1, truncated, D143A, DHFR fusion (Arabidopsis thaliana)
Notes: methotrexate growth selection, single substitutions
Starting sequence: PYL1, truncated, DHFR fusion (Arabidopsis thaliana); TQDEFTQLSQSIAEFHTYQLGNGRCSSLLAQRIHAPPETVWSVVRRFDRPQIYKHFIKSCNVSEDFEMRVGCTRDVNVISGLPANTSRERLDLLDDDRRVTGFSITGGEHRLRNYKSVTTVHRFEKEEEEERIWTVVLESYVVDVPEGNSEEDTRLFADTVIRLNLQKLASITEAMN
H110P: 9.66%
V76S: 68.1%
R163I: 60.6%
S171V: 97.8%
R123E: 111%
N149D: 69.2%
A170M: 94.9%
M68A: 103%
F56I: 3%
T39P: 78.2%
D96M: 78.6%
F47L: 1.67%
E128F: 105%
R24H: 93.7%
C60E: 11%
G71F: 55.1%

Study 2 — target: CCND2, cyclin fold, Cln2 fusion (human); technique: yeast growth competition, sequencing; medium: yeast; notes: weak parent motif; reference: not given; direction: higher = stronger binding; endpoint: normalised enrichment score
Starting sequence: FOXM1 docking peptide (human); PHLARPIKVESPP
PHLARPIKVESPA [P13A]: -0.0761
PHLARPIKAESPP [V9A]: 0.192
PALARPIKVESPP [H2A]: -0.248
PHLARPIAVESPP [K8A]: -0.231
PHLAAPIKVESPP [R5A]: -0.228
AHLARPIKVESPP [P1A]: -0.122

Study 3 — technique: RNA Bind-n-Seq; form: RNA; medium: in vitro; tested at: 365 nM; reference: no-protein control; direction: higher = stronger binding; endpoint: RBNS enrichment (R)
Target: RNA binding protein fox-1 homolog 2, RRM domain, GST-SBP tag (RBFOX2, Homo sapiens, UniProt O43251-10, residues 100-194)
Notes: natural RNA segment, single round, ends assumed
Shared flanks, not repeated: GGGAGUUCUACAGUCCGACGAUC … UGGAAUUCUCGGGUGCCAA
Target sequence (chain): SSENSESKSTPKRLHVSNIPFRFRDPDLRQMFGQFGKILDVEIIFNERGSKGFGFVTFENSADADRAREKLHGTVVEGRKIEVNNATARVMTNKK
CUUUGAUACCUUUGCGGUCAUGUCUGUGUCUGAUGAGUGUAGAAUCUCUGGAUGUGCACUGUCAGUCAUGUGUCCACCAGGCCUCGAAUAUCAUAUGGGAAAUGUCAUAG: 0.275
CGGACACCACCUAGCUGCAGCAAACAUCUGGCCAGCAGCAGCUUUCAAUAAAUCUACAGCAAACAAAGCUUAGCAAAUGUUUUAUUUGUGUUGAGUAUGCAGUGUCUCUG: 0.26
UCCAUCCCAUGACAUUAUACUGUGAAGUGUAAGAGGACGGGGUUUUUUUAAACUUGGUAGAAAUGUCGGCAGCUGCUCUACACACAACUUCACUCAAGGCUUUGUUUCCA: 0.397
UAAGCAGGUCAAGCAUUUUGAAUUUCAAUGUAGGCCUUCAGGAUCUUCUCACAUGAGGUCAACUGCUAAUGCAAUCUCUACACUUCAAAAAGCACUGAUCGUUCUCCAGU: 0.266
UCUGGAAAUCUAACCAAAGAGUCCCCAGACACCAACGGACCAAAGCUAACCGAGGAAGGAGAUGCCCUGAAAGAAGAAAUGAACAAGGCCCAGACAGAAGAGGACGACCU: 0.329
UCAUUUUGUUUUGGGUUGGUCCAAUUUUAAAAGGAAAUACUACAAUAAAAAUGUUAACCAGAAGGUAACCCUGAGUGUGAUUGUGAGAGAGACACGCCUUUUUACUAGUU: 0.966
UGUGUUAGAUGGUGACCGAAGUGUUCUCCACUACACCUGUCUGAAGAGAUCUAAGUCUGAUAUUUAAGGAGUGAUAGCAUCUUGCAUACUUAAGAAGGCUUAAAAGACUG: 2.13
ACUGAGCAUGCAACGCUGCUGCCGUCCUUGUCUGUGGUUUCAGUUUGUAAAACUGCUAAGCCAUUCUCAUGCACAUGGGUGAAUGACAUUUCCUAGGAACGGUCUCUGAC: 2.8

Study 4 — technique: universal PBM; form: double-stranded DNA, one strand shown; medium: in vitro; tested at: 600 nM; direction: higher = stronger binding; endpoint: E-score
Target: Sal-like protein 4, full length isoform A (SALL4, Homo sapiens, UniProt Q9UJQ4, residues 1-1053)
Chain of UniProt Q9UJQ4 (whole entry, looked up): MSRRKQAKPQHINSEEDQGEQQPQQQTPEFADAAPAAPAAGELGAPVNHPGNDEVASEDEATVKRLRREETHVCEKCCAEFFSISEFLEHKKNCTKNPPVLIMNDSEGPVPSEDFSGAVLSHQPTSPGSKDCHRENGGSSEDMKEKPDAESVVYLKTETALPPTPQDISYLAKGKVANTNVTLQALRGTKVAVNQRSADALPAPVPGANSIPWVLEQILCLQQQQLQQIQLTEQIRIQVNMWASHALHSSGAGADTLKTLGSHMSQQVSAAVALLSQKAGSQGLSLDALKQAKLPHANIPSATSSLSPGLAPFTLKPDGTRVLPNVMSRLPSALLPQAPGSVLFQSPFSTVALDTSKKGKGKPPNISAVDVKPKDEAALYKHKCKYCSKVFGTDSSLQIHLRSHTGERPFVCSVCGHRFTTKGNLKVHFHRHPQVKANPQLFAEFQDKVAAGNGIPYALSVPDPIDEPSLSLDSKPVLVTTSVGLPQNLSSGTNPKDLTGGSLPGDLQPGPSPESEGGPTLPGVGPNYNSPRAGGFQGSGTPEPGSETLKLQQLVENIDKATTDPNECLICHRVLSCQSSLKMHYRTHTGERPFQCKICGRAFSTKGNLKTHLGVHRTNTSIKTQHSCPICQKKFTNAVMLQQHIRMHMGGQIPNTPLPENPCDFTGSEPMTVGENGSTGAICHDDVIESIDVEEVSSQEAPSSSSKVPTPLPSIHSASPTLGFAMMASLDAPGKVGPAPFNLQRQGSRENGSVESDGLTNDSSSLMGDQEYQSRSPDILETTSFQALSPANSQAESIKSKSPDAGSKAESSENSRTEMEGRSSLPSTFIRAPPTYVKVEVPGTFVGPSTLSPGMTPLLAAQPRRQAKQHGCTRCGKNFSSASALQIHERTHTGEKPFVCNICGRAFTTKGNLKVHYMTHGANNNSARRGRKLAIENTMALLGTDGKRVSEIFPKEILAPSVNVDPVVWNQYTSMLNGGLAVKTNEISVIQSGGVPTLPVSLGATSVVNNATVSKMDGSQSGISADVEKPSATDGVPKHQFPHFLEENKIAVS
Notes: 8-mer, flanks averaged, mean of replicates
AACCAGAT: 0.0615
ACCATGCT: -0.0931
GCACGCGC: -0.202
GACAGATA: 0.117
ATGCCCAA: -0.0521
ACACGCCG: -0.197
GCGCAAAC: -0.192
ATACGCAG: 0.00103
CGTCCCTC: -0.244
GACCGCCA: -0.364
CGTGACTA: 0.149
ATGCGAAG: 0.152
GACGTCCC: -0.341
CACTGCGC: -0.245
ATGATGAC: 0.128
AGACGTGA: 0.0335
CGCGTCAC: -0.18
AGGAAACA: 0.0951
GCGTTTCC: -0.155
CACACAGG: -0.0175
ACACTTGG: 0.0617
CTTTGGGA: 0.0163

Study 5 — target: CEBPD, bZIP domain (human); technique: DHFR protein complementation; medium: yeast; reference: wild-type JUN-FOS pair; direction: higher = stronger binding; endpoint: binding fitness
Notes: single substitutions, most at no-binding floor
Starting sequence: JUN, bZIP domain (human); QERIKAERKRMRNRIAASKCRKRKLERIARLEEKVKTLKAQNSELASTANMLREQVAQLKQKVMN; partner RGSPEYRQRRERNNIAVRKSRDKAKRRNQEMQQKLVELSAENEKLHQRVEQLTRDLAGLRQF
A40E: -1.29 natural log
N42W: -1.45 natural log
E33F: -1.45 natural log
Q55H: -1.52 natural log
N42R: -1.48 natural log
I28S: -1.33 natural log
E33I: -1.55 natural log
I28R: -1.3 natural log
L52T: -1.45 natural log
L45A: -1.46 natural log
M51C: -1.37 natural log
K36D: -1.32 natural log
Q55N: -1.45 natural log
A40W: -1.31 natural log
I28W: -1.22 natural log

Mixed results
PhoQ, residues 284 288 289 292 302 303 NLSRDF  fold induction (PhoP, residues 12 14 15 18 19 LQHIR (Escherichia coli, UniProt P23836); Sort-seq, item: YFP reporter; E. coli; PhoQ-PhoP variant library, with: 10 µM Mg2+; reference: high Mg2+ state, higher = stronger signaling): 20.8

A few entries again (study 3):
ACUGAGCAUGCAACGCUGCUGCCGUCCUUGUCUGUGGUUUCAGUUUGUAAAACUGCUAAGCCAUUCUCAUGCACAUGGGUGAAUGACAUUUCCUAGGAACGGUCUCUGAC: 2.8
UAAGCAGGUCAAGCAUUUUGAAUUUCAAUGUAGGCCUUCAGGAUCUUCUCACAUGAGGUCAACUGCUAAUGCAAUCUCUACACUUCAAAAAGCACUGAUCGUUCUCCAGU: 0.266
CGGACACCACCUAGCUGCAGCAAACAUCUGGCCAGCAGCAGCUUUCAAUAAAUCUACAGCAAACAAAGCUUAGCAAAUGUUUUAUUUGUGUUGAGUAUGCAGUGUCUCUG: 0.26
UGUGUUAGAUGGUGACCGAAGUGUUCUCCACUACACCUGUCUGAAGAGAUCUAAGUCUGAUAUUUAAGGAGUGAUAGCAUCUUGCAUACUUAAGAAGGCUUAAAAGACUG: 2.13
UCCAUCCCAUGACAUUAUACUGUGAAGUGUAAGAGGACGGGGUUUUUUUAAACUUGGUAGAAAUGUCGGCAGCUGCUCUACACACAACUUCACUCAAGGCUUUGUUUCCA: 0.397
UCAUUUUGUUUUGGGUUGGUCCAAUUUUAAAAGGAAAUACUACAAUAAAAAUGUUAACCAGAAGGUAACCCUGAGUGUGAUUGUGAGAGAGACACGCCUUUUUACUAGUU: 0.966
CUUUGAUACCUUUGCGGUCAUGUCUGUGUCUGAUGAGUGUAGAAUCUCUGGAUGUGCACUGUCAGUCAUGUGUCCACCAGGCCUCGAAUAUCAUAUGGGAAAUGUCAUAG: 0.275
UCUGGAAAUCUAACCAAAGAGUCCCCAGACACCAACGGACCAAAGCUAACCGAGGAAGGAGAUGCCCUGAAAGAAGAAAUGAACAAGGCCCAGACAGAAGAGGACGACCU: 0.329
